Results of several laboratories.
Every numbered part comes from another study and shows a few of its results, in no order. Substitutions count along the parent as printed.

Series 1
Target: Ras GTPase-activating protein-binding protein 1, full length (G3BP1, Homo sapiens, UniProt Q13283)
UniProt Q13283, sequence (whole entry, looked up): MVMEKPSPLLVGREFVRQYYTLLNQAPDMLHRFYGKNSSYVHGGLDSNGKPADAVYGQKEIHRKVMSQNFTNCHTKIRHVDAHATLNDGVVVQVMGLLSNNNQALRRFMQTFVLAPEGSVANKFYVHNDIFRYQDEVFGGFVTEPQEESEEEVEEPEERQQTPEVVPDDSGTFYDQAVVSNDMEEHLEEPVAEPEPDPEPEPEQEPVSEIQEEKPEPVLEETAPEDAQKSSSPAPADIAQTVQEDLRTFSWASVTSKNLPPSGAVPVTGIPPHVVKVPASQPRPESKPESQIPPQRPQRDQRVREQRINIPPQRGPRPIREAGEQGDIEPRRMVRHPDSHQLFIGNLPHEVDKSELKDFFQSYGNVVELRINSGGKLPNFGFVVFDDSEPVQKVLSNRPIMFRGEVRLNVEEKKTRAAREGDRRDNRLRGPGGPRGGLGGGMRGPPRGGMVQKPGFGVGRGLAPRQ
Technique: RNA Bind-n-Seq
Form: RNA
Medium: in vitro
Tested at: 200 nM
Setting: whole 134-nt RNA, ends assumed
Added: 150 mM KCl
Reference: input library
Reading: higher = stronger binding
Constant ends, left off below: GGGAGUUCUACAGUCCGACGAUC … UGGAAUUCUCGGGUGUCAAGG
| Sequence | log2 enrichment |
| --- | --- |
| CUGUGCUACACAUCGUAUGUACCGAAUCGGGGAAAAAAAGGGAAAAAAAGGGAAAAAAAGGGAAAGUAUUAUGUUACGCCGUUCGGAUCU | -0.772 |
| GUCCUGUGCUACACAUCGUAUGUACCGAAUCGGCCCCCGGGGCCCCCGGGCCCCCGGGAAAGUAUUAUGUUACGCCGUUCGGAUCUGCAC | -0.604 |
| CCUCAAGUCCUGUGCUACACAUCGUAUGUACCGAAUCGGCCGGCCGGCCGGGGAAAGUAUUAUGUUACGCCGUUCGGAUCUGCACUUCCA | 0.744 |
| UGGGAGGUUGAUUUUGUUUAUUUUUUUAGCUCAUUUCCAGGGGUGGGAAUUUUUUUUUAAUAUGUGUCAUGAAUAAAGUUGUUUUUGAAA | -0.104 |
| AAGUCCUGUGCUACACAUCGUAUGUACCGAAUCGGGUGGGUUUUUUUGGGUUUGGGAAAGUAUUAUGUUACGCCGUUCGGAUCUGCACUU | 0.101 |
| GCAGGAAGUAAAAACAAAUGGAAAUGCUUCGGAUAGUGGCAGGGGUGGGGGUUGCUAAGGAAAGGGUGGGAUGAGAGUGGGUAAAGAGUU | 0.801 |
| UCUGCUAAAGAGAAAGGAAAAUUUGAAGAUAUGGCAAAAGCGGACAAGGCCCGUUAUGAAAGAGAAAUGAAAACCUAUAUCCCUCCCAAA | 0.593 |
| CUCAAGUCCUGUGCUACACAUCGUAUGUACCGAAUCGGAAAAAAAGGAGGUGGAAAGUAUUAUGUUACGCCGUUCGGAUCUGCACUUCCA | -0.457 |

Series 2
Target: UBE2D4 UBC core domain (UniProt Q9Y2X8)
UniProt Q9Y2X8, sequence (whole entry, looked up): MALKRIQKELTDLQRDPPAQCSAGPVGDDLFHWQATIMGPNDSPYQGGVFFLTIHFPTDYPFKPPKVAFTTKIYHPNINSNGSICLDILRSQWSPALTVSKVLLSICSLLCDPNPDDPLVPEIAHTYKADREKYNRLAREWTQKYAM
Technique: yeast two-hybrid
Medium: yeast
Setting: mostly zero background
Reference: not given
Reading: higher = stronger interaction
B1: RFWD3 RING domain (UniProt Q6PCD5); chain ASMDEEEGDTCTICLEQWTNAGDHRLSALRCGHLFGYRCISTWLKGQVRKCPQCNKKARHSDIVV
B2: MAP3K1 RING domain (UniProt Q13233); chain NSIKDEEEQMCPICLLGMLDEESLTVCEDGCRNKLHHHCMSIWAEECRRNREPLICPLCRSKWRSHDFYS
B3: SYTL4 RING domain (UniProt Q96C24); chain RGSQHYSDRTCARCQESLGRLSPKTNTCRGCNHLVCRDCRIQESNGTWRCKVCAKEIELKKAT
| Molecule | lacZ reporter activity |
| --- | --- |
| B1 (RFWD3 RING domain) | 10300 |
| PEDRESLKSACVVCLSSFKSCVFLECGHVCSCTECYRALPEPKKCPICRQAITRVIPLY (MUL1 RING domain (UniProt Q969V5)) | 13100 |
| B2 (MAP3K1 RING domain) | 14600 |
| B3 (SYTL4 RING domain) | 0 |

Series 3
Target: Phosphate system positive regulatory protein PHO4, full length, GST-tagged (PHO4, Saccharomyces cerevisiae, UniProt P07270, residues 1-312)
Technique: competition protein-binding microarray
Form: double-stranded DNA, one strand shown
Medium: in vitro
Tested at: 2 µM
Setting: whole 60-bp probe, lowest competitor level
Added: Cbf1 competitor, 0.05 µM
Reading: higher = stronger binding
Constant ends, left off below: … GTCTTGATTCGCTTGACGCTGCTG
Residues (chain): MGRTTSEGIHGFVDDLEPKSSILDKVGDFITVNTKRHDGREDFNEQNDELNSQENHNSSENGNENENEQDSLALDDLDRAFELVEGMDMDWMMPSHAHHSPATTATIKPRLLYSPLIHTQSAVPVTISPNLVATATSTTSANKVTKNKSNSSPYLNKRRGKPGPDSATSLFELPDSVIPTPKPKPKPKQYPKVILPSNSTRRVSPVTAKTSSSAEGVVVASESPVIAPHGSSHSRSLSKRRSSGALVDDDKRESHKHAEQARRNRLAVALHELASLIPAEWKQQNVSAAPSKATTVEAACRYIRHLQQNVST
| Sequence | fluorescence intensity [a.u.] |
| --- | --- |
| TAGTGGATTCTCGGAGGCGTGACTCGAGCCAGCCCA | 4650 |
| TTTTTCTTTTGATATACCGTGATGGCTCTGATAGGT | 4330 |
| CTCCTCCGCGCTTTCCTCGTGCGCCTGCAGCCCTTG | 11100 |
| CGTCCTAGTGATTGGTGGGTGGGTGCCATGAGGAAG | 8290 |
| CATACCCAACCTTGCGTTGTGGGTGAAGATATTTGT | 4910 |
| AAATTACTAAGTTGGTTGGTGGGTGACGCCGTATGA | 3980 |
| AAATTACTAAGTTGGTTTGTGGGTGACGCCGTATGA | 3860 |
| CGTCCTAGTGATTTTCACGTGAGGTCCATGAGGAAG | 9360 |

Series 4
Target: CCNE2, cyclin fold, Cln2 fusion (human)
Technique: yeast growth competition, sequencing
Medium: yeast
Setting: strong parent motif
Reference: not given
Reading: higher = stronger binding
Starting sequence: viral docking peptide; KGVKRKLFAEDSS
| Substitution | normalised enrichment score |
| --- | --- |
| E10G | 5.76 |
| R5C | 1.09 |
| R5F | 0.686 |
| R5L | 0.214 |

Repeated from above (series 1):
| Sequence | log2 enrichment |
| --- | --- |
| UGGGAGGUUGAUUUUGUUUAUUUUUUUAGCUCAUUUCCAGGGGUGGGAAUUUUUUUUUAAUAUGUGUCAUGAAUAAAGUUGUUUUUGAAA | -0.104 |
| GUCCUGUGCUACACAUCGUAUGUACCGAAUCGGCCCCCGGGGCCCCCGGGCCCCCGGGAAAGUAUUAUGUUACGCCGUUCGGAUCUGCAC | -0.604 |
| UCUGCUAAAGAGAAAGGAAAAUUUGAAGAUAUGGCAAAAGCGGACAAGGCCCGUUAUGAAAGAGAAAUGAAAACCUAUAUCCCUCCCAAA | 0.593 |
| CCUCAAGUCCUGUGCUACACAUCGUAUGUACCGAAUCGGCCGGCCGGCCGGGGAAAGUAUUAUGUUACGCCGUUCGGAUCUGCACUUCCA | 0.744 |
